Published values collected from several papers.
Every numbered part comes from another study and shows a few of its results, in no order.
UniProt Q9C098, sequence (whole entry, looked up): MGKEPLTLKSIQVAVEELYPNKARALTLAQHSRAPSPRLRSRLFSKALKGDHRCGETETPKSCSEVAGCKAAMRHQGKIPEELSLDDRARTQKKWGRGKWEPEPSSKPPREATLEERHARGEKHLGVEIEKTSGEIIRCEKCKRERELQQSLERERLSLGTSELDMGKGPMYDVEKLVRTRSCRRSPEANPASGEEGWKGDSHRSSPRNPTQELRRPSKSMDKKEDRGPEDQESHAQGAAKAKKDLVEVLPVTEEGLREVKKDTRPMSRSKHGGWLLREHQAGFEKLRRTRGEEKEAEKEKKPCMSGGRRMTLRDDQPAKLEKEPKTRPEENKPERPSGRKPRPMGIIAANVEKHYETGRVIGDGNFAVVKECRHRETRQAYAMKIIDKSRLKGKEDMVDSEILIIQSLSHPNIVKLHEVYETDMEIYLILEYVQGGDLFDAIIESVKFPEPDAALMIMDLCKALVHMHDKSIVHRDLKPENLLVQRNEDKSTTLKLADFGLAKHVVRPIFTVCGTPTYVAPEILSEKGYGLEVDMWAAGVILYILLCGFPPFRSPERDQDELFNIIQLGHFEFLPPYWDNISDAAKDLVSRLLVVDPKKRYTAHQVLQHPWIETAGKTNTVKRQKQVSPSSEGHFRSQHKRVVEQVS
UniProt O75582, sequence (whole entry, looked up): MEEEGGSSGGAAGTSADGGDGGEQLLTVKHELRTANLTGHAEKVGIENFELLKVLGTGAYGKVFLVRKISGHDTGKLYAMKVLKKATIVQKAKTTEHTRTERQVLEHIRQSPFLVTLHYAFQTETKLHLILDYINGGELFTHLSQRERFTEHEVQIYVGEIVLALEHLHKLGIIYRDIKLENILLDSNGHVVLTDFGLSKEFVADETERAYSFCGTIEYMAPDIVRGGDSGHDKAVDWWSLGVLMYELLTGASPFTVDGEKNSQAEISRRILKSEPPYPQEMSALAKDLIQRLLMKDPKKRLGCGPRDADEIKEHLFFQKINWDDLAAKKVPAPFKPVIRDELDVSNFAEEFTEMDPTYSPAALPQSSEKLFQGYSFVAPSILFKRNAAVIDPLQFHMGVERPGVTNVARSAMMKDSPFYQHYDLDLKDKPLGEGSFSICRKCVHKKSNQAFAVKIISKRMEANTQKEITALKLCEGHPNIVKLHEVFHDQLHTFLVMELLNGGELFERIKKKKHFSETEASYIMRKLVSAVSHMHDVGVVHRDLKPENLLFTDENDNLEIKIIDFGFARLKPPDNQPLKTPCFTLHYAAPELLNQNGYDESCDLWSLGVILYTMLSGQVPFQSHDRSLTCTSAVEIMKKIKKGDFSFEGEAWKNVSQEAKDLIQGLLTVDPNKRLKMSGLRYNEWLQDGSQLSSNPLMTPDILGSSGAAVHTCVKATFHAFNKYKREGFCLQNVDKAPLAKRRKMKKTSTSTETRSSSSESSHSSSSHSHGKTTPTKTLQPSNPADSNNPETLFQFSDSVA
UniProt P10721, sequence (whole entry, unmodified, looked up): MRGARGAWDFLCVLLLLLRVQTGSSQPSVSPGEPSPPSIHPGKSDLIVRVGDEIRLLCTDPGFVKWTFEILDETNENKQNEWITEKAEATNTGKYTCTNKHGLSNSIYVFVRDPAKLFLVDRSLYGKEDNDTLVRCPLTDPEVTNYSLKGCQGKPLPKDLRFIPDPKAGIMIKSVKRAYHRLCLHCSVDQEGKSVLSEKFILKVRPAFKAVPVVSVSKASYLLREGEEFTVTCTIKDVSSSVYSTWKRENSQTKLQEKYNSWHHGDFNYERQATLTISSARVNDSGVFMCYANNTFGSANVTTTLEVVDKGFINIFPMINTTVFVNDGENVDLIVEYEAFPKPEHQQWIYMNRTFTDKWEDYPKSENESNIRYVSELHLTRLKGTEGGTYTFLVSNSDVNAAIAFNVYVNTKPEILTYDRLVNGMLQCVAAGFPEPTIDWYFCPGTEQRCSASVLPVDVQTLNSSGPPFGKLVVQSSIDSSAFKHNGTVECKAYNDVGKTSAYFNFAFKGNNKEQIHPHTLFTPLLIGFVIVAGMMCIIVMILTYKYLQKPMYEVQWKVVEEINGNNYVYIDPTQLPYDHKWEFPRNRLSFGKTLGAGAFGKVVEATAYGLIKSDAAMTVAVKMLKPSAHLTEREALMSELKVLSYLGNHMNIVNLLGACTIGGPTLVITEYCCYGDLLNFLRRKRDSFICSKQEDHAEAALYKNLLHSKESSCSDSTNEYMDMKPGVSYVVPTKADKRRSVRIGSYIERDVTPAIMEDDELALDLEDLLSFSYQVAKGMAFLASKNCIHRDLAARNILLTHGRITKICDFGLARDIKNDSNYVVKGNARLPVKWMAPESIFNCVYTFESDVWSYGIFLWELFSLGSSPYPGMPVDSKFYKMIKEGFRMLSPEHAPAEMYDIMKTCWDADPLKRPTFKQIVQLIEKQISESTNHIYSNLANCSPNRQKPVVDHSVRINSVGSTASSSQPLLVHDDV
UniProt P78362, sequence (whole entry, looked up): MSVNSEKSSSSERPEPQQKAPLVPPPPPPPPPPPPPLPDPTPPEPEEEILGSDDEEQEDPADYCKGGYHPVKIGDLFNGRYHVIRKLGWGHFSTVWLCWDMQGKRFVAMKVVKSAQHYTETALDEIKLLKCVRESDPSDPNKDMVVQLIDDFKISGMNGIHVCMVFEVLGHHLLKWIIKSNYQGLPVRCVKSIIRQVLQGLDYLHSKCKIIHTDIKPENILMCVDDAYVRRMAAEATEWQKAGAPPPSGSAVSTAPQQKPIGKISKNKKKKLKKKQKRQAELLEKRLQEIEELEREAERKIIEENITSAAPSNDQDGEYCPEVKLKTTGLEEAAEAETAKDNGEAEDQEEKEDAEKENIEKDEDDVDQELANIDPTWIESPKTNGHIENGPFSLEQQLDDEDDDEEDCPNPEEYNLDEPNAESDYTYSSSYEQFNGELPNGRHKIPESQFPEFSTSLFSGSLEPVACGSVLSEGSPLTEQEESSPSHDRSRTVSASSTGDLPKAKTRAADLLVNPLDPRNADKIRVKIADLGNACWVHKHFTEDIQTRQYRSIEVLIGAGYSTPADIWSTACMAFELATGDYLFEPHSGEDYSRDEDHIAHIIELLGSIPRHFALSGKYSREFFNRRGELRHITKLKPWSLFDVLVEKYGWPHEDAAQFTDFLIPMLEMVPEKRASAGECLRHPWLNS
UniProt P0C264, sequence (whole entry, looked up): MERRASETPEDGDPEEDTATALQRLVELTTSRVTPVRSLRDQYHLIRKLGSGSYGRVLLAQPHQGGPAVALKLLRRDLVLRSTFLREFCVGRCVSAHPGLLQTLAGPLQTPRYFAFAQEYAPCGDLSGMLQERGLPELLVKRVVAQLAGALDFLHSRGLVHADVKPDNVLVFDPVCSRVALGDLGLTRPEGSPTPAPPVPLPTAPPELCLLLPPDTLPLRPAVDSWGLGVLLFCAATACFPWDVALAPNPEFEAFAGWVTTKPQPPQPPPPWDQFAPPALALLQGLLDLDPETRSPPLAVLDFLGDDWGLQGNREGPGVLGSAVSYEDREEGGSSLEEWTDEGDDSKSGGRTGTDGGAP
UniProt P51812, sequence (whole entry, looked up): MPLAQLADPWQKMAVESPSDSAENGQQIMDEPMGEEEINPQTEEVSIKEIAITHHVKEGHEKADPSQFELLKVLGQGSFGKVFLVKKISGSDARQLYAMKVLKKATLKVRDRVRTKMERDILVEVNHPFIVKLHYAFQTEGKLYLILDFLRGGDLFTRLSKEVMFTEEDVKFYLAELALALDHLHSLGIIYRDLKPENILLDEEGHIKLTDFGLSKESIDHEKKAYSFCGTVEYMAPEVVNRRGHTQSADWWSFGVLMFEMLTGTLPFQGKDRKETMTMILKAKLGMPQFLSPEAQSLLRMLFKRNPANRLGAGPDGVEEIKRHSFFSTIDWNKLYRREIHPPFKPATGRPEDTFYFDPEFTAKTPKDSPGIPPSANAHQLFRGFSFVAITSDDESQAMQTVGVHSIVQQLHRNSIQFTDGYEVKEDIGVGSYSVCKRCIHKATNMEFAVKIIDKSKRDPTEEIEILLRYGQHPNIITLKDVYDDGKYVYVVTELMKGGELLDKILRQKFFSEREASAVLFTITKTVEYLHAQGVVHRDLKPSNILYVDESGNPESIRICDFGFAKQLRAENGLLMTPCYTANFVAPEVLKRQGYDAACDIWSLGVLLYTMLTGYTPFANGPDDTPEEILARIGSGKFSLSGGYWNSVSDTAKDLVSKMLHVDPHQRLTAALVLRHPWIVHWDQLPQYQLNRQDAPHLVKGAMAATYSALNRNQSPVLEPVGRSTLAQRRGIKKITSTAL

Block 1
Structure (SMILES): NS(=O)(=O)c1cc(NC(=O)Cc2ccccc2)ccc1Oc1cccc(Cl)c1
Effect on: cell-free assay
Technique: competition with immobilised ligand
Concentration: 1 µM
target	remaining binding
Tyrosine-protein kinase ABL1, phosphorylated (ABL1, Homo sapiens, UniProt P00519, M351T)	78%
Serine/threonine-protein kinase DCLK3 (DCLK3, Homo sapiens, UniProt Q9C098)	92%
RAF proto-oncogene serine/threonine-protein kinase (RAF1, Homo sapiens, UniProt P04049)	100%
SRSF protein kinase 2 (SRPK2, Homo sapiens, UniProt P78362)	88%
Mast/stem cell growth factor receptor Kit (KIT, Homo sapiens, UniProt P10721, A829P)	74%
Epidermal growth factor receptor (EGFR, Homo sapiens, UniProt P00533, L861Q)	64%
Uncharacterized serine/threonine-protein kinase SBK3 (SBK3, Homo sapiens, UniProt P0C264)	100%
Ribosomal protein S6 kinase alpha-3, N-terminal kinase domain (RPS6KA3, Homo sapiens, UniProt P51812)	72%

Block 2
Target: Serine/threonine-protein kinase Chk2 (CHEK2, Homo sapiens, UniProt O96017)
UniProt O96017, sequence (whole entry, looked up): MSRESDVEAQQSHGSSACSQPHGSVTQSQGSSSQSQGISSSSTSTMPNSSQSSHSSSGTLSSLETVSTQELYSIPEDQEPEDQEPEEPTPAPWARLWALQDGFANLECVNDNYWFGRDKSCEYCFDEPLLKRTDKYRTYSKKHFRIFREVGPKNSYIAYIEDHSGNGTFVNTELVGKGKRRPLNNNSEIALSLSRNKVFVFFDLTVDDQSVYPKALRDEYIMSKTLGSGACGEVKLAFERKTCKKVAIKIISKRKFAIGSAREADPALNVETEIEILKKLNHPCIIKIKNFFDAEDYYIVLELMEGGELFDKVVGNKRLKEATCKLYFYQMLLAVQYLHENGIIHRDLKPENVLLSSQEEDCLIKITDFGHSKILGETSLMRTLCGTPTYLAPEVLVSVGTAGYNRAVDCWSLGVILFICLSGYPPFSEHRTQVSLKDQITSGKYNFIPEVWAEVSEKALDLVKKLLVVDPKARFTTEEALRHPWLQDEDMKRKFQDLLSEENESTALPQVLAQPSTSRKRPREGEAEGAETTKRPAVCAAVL
Effect on: enzyme activity
Mode: inhibitor
Concentration: 0.5 µM
Reference: control
SMILES	remaining activity [%]
Nc1ccc2ncnc(NCCc3ccc(Oc4ccccc4)cc3)c2c1	91.7
Cc1ccc(Nc2nccc(N(C)c3ccc4c(C)n(C)nc4c3)n2)cc1S(N)(=O)=O	95.1
COc1ccc(OC)c2c(=S)c3ccccc3[nH]c12	117
COc1cc2ncnc(Nc3ccc(F)c(Cl)c3)c2cc1OCCCN1CCOCC1	84
CO[C@H]1C[C@@H]2CC[C@@H](C)[C@@](O)(O2)C(=O)C(=O)N2CCCC[C@H]2C(=O)O[C@H]([C@H](C)C[C@@H]2CC[C@@H](O)[C@H](OC)C2)CC(=O)[C@H](C)/C=C(\C)[C@@H](O)[C@@H](OC)C(=O)[C@H](C)C[C@H](C)/C=C/C=C/C=C/1C	99
N#CC(C#N)=C(N)/C(C#N)=C/c1ccc(O)cc1	95.5
Cc1nc(-c2ccccc2)c(-c2ccncc2)o1	96.6
Nc1[nH]nc2nc3ccccc3nc12	94.5
NCCNc1ncc(C(N)=O)c(Nc2cccc(C(F)(F)F)c2)n1	11.5
Oc1ccc(-c2nc(-c3ccncc3)c(-c3ccc(F)cc3)[nH]2)cc1	98.9
COc1ccc(C(=O)Nc2sc3c(c2C(N)=O)CCCC3)cc1OC	93
Nc1ncnc2n[nH]c(Nc3ccc(F)cc3)c12	98.6
O=C(Nc1cccc(Nc2cc(Nc3cccc(C(F)(F)F)c3)ncn2)c1)C1CC1	99.5
O=C1NC(=O)C(c2cn(CCCO)c3ncccc23)=C1c1cnccn1	97.7
Cc1cccc(-c2[nH]c(C(C)(C)C)nc2-c2ccc3c(c2)OCO3)n1	96.4

Block 3
Structure (SMILES): C=CC(=O)N1CCC([C@@H]2CCNc3c(C(N)=O)c(-c4ccc(Oc5ccccc5)cc4)nn32)CC1
Concentration: 1 µM
target	effect on	mode	inhibition
Tyrosine-protein kinase JAK1, JH2 pseudokinase domain (JAK1, Homo sapiens, UniProt P23458)		inhibitor	4%
Cyclin-dependent kinase-like 2 (CDKL2, Homo sapiens, UniProt Q92772)	enzyme activity		30%
Ribosomal protein S6 kinase alpha-5, C-terminal kinase domain (RPS6KA5, Homo sapiens, UniProt O75582)		inhibitor	0%

Block 4
Host: human
Medium: microsomes or S9
Concentration: 2 µM
Time: 0.5 h
SMILES	remaining compound [%]
C[C@@H](NC(=O)c1ccc(F)cc1)[C@H](O)c1ccccc1	87
CC(=O)c1ccc(NC(=O)Cn2cnc3c(nnn3-c3ccc(C)cc3)c2=O)cc1	95.9
CC(c1cccc(O)c1)N(C)S(=O)(=O)c1ccc2cn[nH]c2c1 (centres unmarked)	70.9
O=C(NC(c1ccccc1)c1cccc2ccccc12)c1nc(=O)[nH][nH]1 (centres unmarked)	24.8
Cc1cc(C)c(NC(=O)NCc2ccc3nnn(C4CCC(=O)NC4=O)c(=O)c3c2)c(Br)c1 (centres unmarked)	33.5
CCCCCOC(=O)C1[C@H]2C(=O)N(CCCOC)C[C@]23C=C[C@H]1O3 (some centres unmarked)	26.9
